# Results from different studies.
# Parts stem from different laboratories: compare values within a part only. Substitutions count along the parent as printed.

# Block 1
# Target: RNA binding protein fox-1 homolog 2, RRM domain, GST-SBP tag (RBFOX2, Homo sapiens, UniProt O43251-10, residues 100-194)
# Technique: RNA Bind-n-Seq
# Form: RNA
# Medium: in vitro
# Concentration: 365 nM
# Notes: natural RNA segment, single round, ends assumed
# Baseline: no-protein control
# Direction: higher = stronger binding
# Construct (chain): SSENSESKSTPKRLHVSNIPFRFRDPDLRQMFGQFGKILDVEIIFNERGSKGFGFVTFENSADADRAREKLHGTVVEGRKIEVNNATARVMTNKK
Sequence,RBNS enrichment (R)
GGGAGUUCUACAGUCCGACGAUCUGACAGCAUCUUCCCCAGGCAGCGGCUCUGUGGAGGAGGCCAUACUCCCCUAGUUGGCCACUGGGGCCACCACCCUGACCACCACUGUGCCCCUCAUUGUUACUGCCUUGUGGAAUUCUCGGGUGCCAA,0.463
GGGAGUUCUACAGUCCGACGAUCUGCAUUUAACAUUCAUAGCCUACAACCACAGACGUGUCUGGGGGAGCCUGGCAAGGCGUUCCUCGUCACCAUCGUGUUUGCAAAGGUUCAAAAAACAAAAAUCAAAAAAAUGGAAUUCUCGGGUGCCAA,0.504
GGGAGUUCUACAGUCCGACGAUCUUUGGCUUUUGGUAAAUUCAAUCCAGGAAAGACUAGCAUGUGCACUUUAUCUCAUAAUCUUCCAGUACAUAUGCUCUCAGUUGGGAUAGCAGUUCAUUUCCAUUAGGCAGUGGAAUUCUCGGGUGCCAA,2.22
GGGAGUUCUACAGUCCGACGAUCAUUCACCAGAGUUGGAAUUGAGAAAUUUUGGGCUUUCCAAAAUUAACCUUUAAACUUAAAAUUGAUUACAUUGAGCCUAUUCAGAAAAAAAAUUAUAUAGGUUCUGAUGAUGGAAUUCUCGGGUGCCAA,0.662
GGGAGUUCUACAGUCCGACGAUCGAGAUUUUAUAUUUAUAAUCAACACGUGGGUUAACAUGUUUUUUUGAAAUCCAAGCAAUACACAGGAAAUUUAAGUAGAAUAAAAAUUGCAGCCCAUUUUUGAAAUGUCAUGGAAUUCUCGGGUGCCAA,0.709
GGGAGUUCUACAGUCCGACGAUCAACUUCUCUCAGCAGAGAGUACCCAUUCUUCGAGUUCAAAGCACAAUUUUAAACAUGUAAAAUGGAUAUAUAAUUUGCCAAAGGUAAUUAAUUUAUUCUUUUUUUCUUAAUGGAAUUCUCGGGUGCCAA,0.409
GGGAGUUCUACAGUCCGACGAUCCUUUUCUUUUUUUAACCCUUACUCUCCCUGCAGACUCAACCAUGACUGUUCUGCGUUGGAACAGAUGGAGUGAGAAACCCUACAGCCUGCCCGAACCCAGACUCUCCCCCUGGAAUUCUCGGGUGCCAA,1.03
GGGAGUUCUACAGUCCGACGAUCCUUAUUUAUUUGGGGGGAAAACUAUACAUUAAAGGACCUUUGUCCUAAAGCUCUCUCCCAGGCCACCUUGUUACUCAUUGGACACGGAGAGGCAUUCAUUGUGAGGUCUAUGGAAUUCUCGGGUGCCAA,0.271
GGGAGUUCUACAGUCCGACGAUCCUCUUUGAUACACUUUUGCUUGCCUCCCCAGGAAAGAAGGAAUUGCAUCCAAGGUAUACAUACAUAUUCAUCGAUGUUUCGUGCUUCUCCUUAUGAAACUCCAGCUAUGUUGGAAUUCUCGGGUGCCAA,0.942
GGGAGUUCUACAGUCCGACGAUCUCUACUGUUUUAAUGAGAUUUAACAGCUUUUAACAGUGAGUUUCGUUUGUAAACUGCUUGAAGUCUGUGGCAUUCAGGCACACGUCUGGCUGGCCGGCUGGGUCUCCUCCUGGAAUUCUCGGGUGCCAA,0.277
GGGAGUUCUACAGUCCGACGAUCAGGUGCAGCACCUCCCGGAGACUGUUUCUCCCAUGGCCUCCUGAGUGAUGGGCCCUGCCUCCCUGUGCCUCAUCCUCAGGCUGGUUGGAGCAGAGGGUGGGCAGGAGCCCUGGAAUUCUCGGGUGCCAA,0.16
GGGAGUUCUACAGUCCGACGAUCCCAAGUUUUGGGUGUGAAAUGUUGCCAGCUUCCUAUAAUGUAAACGGACUUGUUAACCUAACCUAAUUAUGCUCAGUGGACUUCUAUAGAUGGUUUUGAAAAAUGAACUGUGGAAUUCUCGGGUGCCAA,0.586

# Block 2
# Target: Histone acetyltransferase KAT6A, winged helix 2, GST fusion (KAT6A, Homo sapiens, UniProt Q92794, residues 85-181)
# Technique: protein binding microarray
# Form: double-stranded DNA, one strand shown
# Medium: in vitro
# Concentration: not given
# Notes: 8-mer, flanks averaged, mean of 2 arrays, mostly near background
# Baseline: not given
# Direction: higher = stronger binding
# Target sequence (chain): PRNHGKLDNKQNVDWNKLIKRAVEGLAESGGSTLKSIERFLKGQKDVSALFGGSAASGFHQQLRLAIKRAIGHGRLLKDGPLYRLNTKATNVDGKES
Sequence,E-score
CGCGGCCC,0.196
ACTGCCAG,0.0747
CAATAATC,-0.126
AATGTACG,-0.161
AGATTGCT,-0.00961
GTTTGCCA,0.038
AGCCACTG,0.0999
GAAGTCCA,0.00189
ACGGTCGG,-0.0294
CTGGGCCC,0.0607
ATTAGTGG,0.0676
CTAGATAC,-0.049
CGGGTGAG,0.101
ACACTACA,0.141
GCGAGGCA,0.157
AGGACCTC,-0.0599
AACGGGGA,-0.0928

# Block 3
# Target: Sal-like protein 4, full length isoform B (SALL4, Homo sapiens, UniProt Q9UJQ4-2, residues 1-616)
# Technique: universal PBM
# Form: double-stranded DNA, one strand shown
# Medium: in vitro
# Concentration: not given
# Notes: 8-mer, flanks averaged, mean of replicates
# Direction: higher = stronger binding
Sequence,E-score
CTCGTTGA,-0.043
GATGCCGA,-0.142
ATGTCGGA,-0.0791
CAGACGCC,-0.274
CTCAAGTC,-0.0273
AGTAGTAA,0.239
CGCTAGAA,-0.122
AGATTCCA,0.0486
CGCGGAAG,-0.188
ACCGTGTA,0.00472
AAATCTAA,0.252
CTTGTTCA,0.0948
GAACAGAA,0.0676
CCTAAGAG,-0.134
GAAAGATC,-0.135
CAGCGTGA,-0.125
CCGCTATA,0.19
GGGGACTA,-0.03
CATGTCGG,-0.144
CCAATTTC,0.169
ACAAGGAC,-0.179

# Block 4
# Target: Prothrombin, mature alpha-thrombin (F2, Homo sapiens, UniProt P00734)
# Technique: aptamer microarray, sandwich
# Form: DNA with 2'F-ANA
# Medium: in vitro
# Concentration: 200 nM
# Notes: whole 15-mer aptamer, many near background
# Added: Cy3 exosite-II aptamer, 400 nM
# Direction: higher = stronger binding
# Sequence: GGTTGGTGTGGTTGG
Modification,mean fluorescence intensity
2'F-ANA at 1 4 5 7 9 11 15,52.2 a.u.
2'F-ANA at 1 2 3 5 6 9 10 12 13 14,47.1 a.u.
2'F-ANA at 2 3 4 5 6 8 9 10 12 13 14 15,62.6 a.u.
2'F-ANA at 3 5 6 10 12 13,60.2 a.u.
2'F-ANA at 1 2 3 5 6 7 10 12,49.9 a.u.
2'F-ANA at 2 6 7 8 10 13 15,99.9 a.u.
2'F-ANA at 1 2 4 5 6 7 9 10 11 13,51.7 a.u.
2'F-ANA at 1 2 7 10 11 13 15,59.3 a.u.
2'F-ANA at 3 4 7 8 9 12 13 15,608 a.u.
2'F-ANA at 2 4 6 10 11 12 13 15,80.8 a.u.
2'F-ANA at 5 7 10,47.8 a.u.
2'F-ANA at 1 2 4 5 7 8 11 12 13 15,72.3 a.u.
2'F-ANA at 1 2 3 6 8 10 13 14,49.6 a.u.
2'F-ANA at 5 7 8 13 15,61.7 a.u.
2'F-ANA at 1 5 7 12 13 14 15,45.3 a.u.
2'F-ANA at 3 4 7 8 10 11 12 14 15,195 a.u.
2'F-ANA at 1 2 3 8 10 11 14,53.8 a.u.
2'F-ANA at 2 3 5 6 9 13 14 15,66 a.u.
2'F-ANA at 1 3 4 5 6 7 8 9 10 13 15,43.5 a.u.
2'F-ANA at 1 2 8 9 10 12 13 15,68.4 a.u.
2'F-ANA at 1 3 6 7 8 9 12 13 14,116 a.u.
2'F-ANA at 2 3 7 8 9 13,725 a.u.

# Block 5
# Target: CCNF, cyclin fold, Cln2 fusion (human)
# Technique: yeast growth competition, sequencing
# Medium: yeast
# Notes: strong parent motif
# Baseline: not given
# Direction: higher = stronger binding
# Starting sequence: RRM2 docking peptide (human); SKTARRIFQEPTE
Variant,normalised enrichment score
SKTARRIFQEPTA [E13A],4.17
SATARRIFQEPTE [K2A],4.22
SKTARRIFQEATE [P11A],4.05
SKTARAIFQEPTE [R6A],3.83
SKTAARIFQEPTE [R5A],0.111
SKTARRIAQEPTE [F8A],0.22

# For quick reference, copied from above (block 3):
Sequence,E-score
CATGTCGG,-0.144
AGATTCCA,0.0486
CTCGTTGA,-0.043
CTCAAGTC,-0.0273
CAGCGTGA,-0.125
CGCGGAAG,-0.188
ATGTCGGA,-0.0791
GGGGACTA,-0.03
CGCTAGAA,-0.122
